Experimental data gathered from unrelated publications.
Compare with care: the assays were run in different laboratories. Numbers after ± are the reported error.

Compound | test | system | conditions | how to read | measurement | value
CC[C@H](C)[C@H](NC(=O)[C@H](C)NC(=O)[C@H](CCCCN)NC(=O)[C@H](CCCCN)NC(=O)[C@@H](N)CCCNC(=N)N)C(=O)N[C@@H](CCCCN)C(=O)N[C@@H](CC(C)C)C(=O)N[C@H](C(=O)N[C@@H](CCCCN)C(=O)N[C@@H](CCCCN)C(=O)N[C@@H](CC(C)C)C(=O)N[C@H](C(=O)N[C@@H](CCCCN)C(=O)N[C@@H](CCCCN)C(=O)N[C@@H](CC(C)C)C(=O)N[C@@H](CCCCN)C(=O)N[C@@H](CCCCN)C(=O)N[C@@H](C)C(=O)N[C@@H](CC(C)C)C(=O)N[C@@H](CCCCN)C(=O)O)C(C)C)C(C)C |  | human red blood cells | 16 mg/L, 1 h, mean of replicates |  | hemolysis | 2.09%
CSCC[C@H](NC(=O)CNC(=O)[C@H](CCCCN)NC(=O)[C@H](CC(C)C)NC(=O)[C@@H]1CCCN1C(=O)[C@H](CO)NC(=O)[C@H](Cc1c[nH]cn1)NC(=O)[C@H](Cc1c[nH]c2ccccc12)NC(=O)[C@H](CCCNC(=N)N)NC(=O)[C@H](CC(C)C)NC(=O)[C@H](CCCNC(=N)N)NC(=O)[C@H](Cc1c[nH]c2ccccc12)NC(=O)[C@H](CS)NC(=O)CCCCCNC(=O)CN1CCN(CC(=O)O)CCN(CC(=O)O)CCN(CC(=O)O)CC1)C(=O)O [copper-64 labelled] | ex vivo biodistribution | C57BL/6J mice bearing B16-F10 tumours, lung | intravenous, 1.85 MBq, 30 h |  | tissue uptake | 4.92 %ID/g
CN1Cc2cc(Cl)ccc2-n2c(nnc2C2CCN(c3cccc([18F])n3)CC2)C1 |  | C57BL/6 mouse male, thymus | intravenous, 3.7 MBq, 60 min |  | tissue uptake | 3.58 ± 4.09 %ID/g
Cc1ccccc1-c1ccc(-c2nc(-c3ccc(CN(C)CCCC(=O)O)c([18F])c3)no2)cc1C(F)(F)F |  | rat, kidney | 5 min |  | tracer uptake | 2.09 %ID/g
CC(C)[C@H](NC(=O)[C@@H](NC(=O)[C@H](CCCNC(=N)N)NC(=O)[C@H](CCCNC(=N)N)NC(=O)[C@H](CCCNC(=N)N)NC(=O)[C@H](CCC(N)=O)NC(=O)[C@H](CCCNC(=N)N)NC(=O)[C@H](CCCNC(=N)N)NC(=O)[C@H](CCCCN)NC(=O)[C@H](CCCCN)NC(=O)[C@H](CCCNC(=N)N)NC(=O)CN)[C@@H](C)O)C(=O)N[C@H](C(=O)N[C@@H](CO)C(=O)N1CCC[C@H]1C(=O)O)[C@@H](C)O |  | ICR mice, male, liver | intranasal, 20 mg/kg daily, 4 weeks |  | organ weight | 1.7 ± 0.091 g
C/C(=N\OCCCN1CCCCC1)c1ccc(C(F)(F)F)cc1 |  | mouse, plasma | oral, 50 mg/kg twice daily, day 1 |  | Cmax | 826 ± 155 ng/mL
O=C1NC2(CC2)COc2ncc(F)cc2[C@H]2COCCN2c2ccn3ncc1c3n2 |  | Sprague-Dawley rat, male, serum | oral, 20 mg/kg/day, 4 weeks daily, end of treatment |  | albumin | 31.4 ± 3.2 g/L
CC(C)[C@@H]1NC(=O)CNC(=O)[C@H](CC(N)=O)NC(=O)[C@H](CCCNC(=N)N)NC(=O)[C@H](Cc2ccc(O)cc2)NC(=O)[C@H](C(C)C)NC(=O)[C@@H](NC(=O)[C@@H](NC(=O)[C@H](CC(N)=O)NC(=O)[C@H](Cc2c[nH]c3ccccc23)NC(=O)[C@H](C)NC(=O)[C@H](Cc2ccccc2)NC(=O)CNC(=O)[C@H](CCCCN)NC(=O)[C@H](Cc2ccccc2)NC(=O)[C@H](Cc2ccccc2)NC(=O)[C@H](CCCCN)NC(=O)OCC2c3ccccc3-c3ccccc32)C(C)C)CSSC[C@@H](C(=O)N[C@@H](Cc2c[nH]cn2)C(=O)N[C@@H](CCCNC(=N)N)C(=O)N[C@@H](CCCNC(=N)N)C(=O)N[C@@H](C)C(=O)N[C@@H](CC(N)=O)C(N)=O)NC(=O)[C@H](C(C)C)NC(=O)[C@H](CCCNC(=N)N)NC1=O |  | ICR mouse | ip, 5 mg/kg | direction not given | group interaction score | 0
CC[C@H](C)[C@H](NC(=O)[C@H](CCCCN)NC(=O)CNC(=O)[C@H](CC(C)C)NC(=O)[C@H](Cc1ccccc1)NC(=O)[C@H](CCCCN)NC(=O)[C@H](CO)NC(=O)[C@H](Cc1ccccc1)NC(=O)[C@H](Cc1c[nH]c2ccccc12)NC(=O)[C@H](CCC(N)=O)NC(=O)[C@@H](NC(=O)[C@H](Cc1ccccc1)NC(=O)CCCCCNC(=O)CN1CCN(CC(=O)O)CCN(CC(=O)O)CCN(CC(=O)O)CC1)C(C)C)C(=O)N[C@@H](CCC(=O)O)C(=O)N1CCC[C@H]1C(=O)N[C@@H](CC(=O)O)C(=O)N[C@H](C(=O)N[C@@H](CO)C(=O)N[C@@H](CCC(N)=O)C(=O)N[C@H](C(=O)N[C@@H](CCC(N)=O)C(=O)N[C@@H](CC(=O)O)C(=O)N1CCC[C@H]1C(=O)N[C@@H](CC(N)=O)C(=O)N[C@@H](CC(=O)O)C(=O)N[C@@H](CCC(N)=O)C(=O)N[C@@H](Cc1ccc(O)cc1)C(=O)N[C@@H](CCC(=O)O)C(=O)N1CCC[C@H]1C(=O)N[C@@H](Cc1ccccc1)C(=O)O)C(C)C)C(C)C [copper-64 labelled] | dynamic PET | mouse, CT26 tumour, untreated, tumour | intravenous, 100 µCi/mouse, 2340 s |  | SUVmean | 1.11 SUV
CC(C)C[C@@H](NC(=O)[C@@H](CCCNC(=N)N)NC(=O)[C@@H](Cc1c[nH]cn1)NC(=O)[C@@H](Cc1c[nH]c2ccccc12)NC(=O)[C@@H](Cc1c[nH]cn1)NC(=O)[C@@H](Cc1ccccc1)NC(=O)[C@H](NC(=O)[C@@H](Cc1ccc(O)cc1)NC(=O)CNC(=O)CNC(=O)CCOCCOCCOCCNC(=O)CN1CCN(CC(=O)O)CCN(CC(=O)O)CC1)[C@H](C)O)C(=O)N[C@H](CC(N)=O)C(=O)N1CCC[C@@H]1C(=O)O [gallium-68 labelled] |  | male C57BL/6 mice | intravenous, 1.85 MBq, 60 min, with: antibody blocking | reference: tumour over heart | tumour-to-tissue ratio | 4.62 ± 0.95

A few entries again:
Compound | test | system | conditions | how to read | measurement | value
CC(C)[C@@H]1NC(=O)CNC(=O)[C@H](CC(N)=O)NC(=O)[C@H](CCCNC(=N)N)NC(=O)[C@H](Cc2ccc(O)cc2)NC(=O)[C@H](C(C)C)NC(=O)[C@@H](NC(=O)[C@@H](NC(=O)[C@H](CC(N)=O)NC(=O)[C@H](Cc2c[nH]c3ccccc23)NC(=O)[C@H](C)NC(=O)[C@H](Cc2ccccc2)NC(=O)CNC(=O)[C@H](CCCCN)NC(=O)[C@H](Cc2ccccc2)NC(=O)[C@H](Cc2ccccc2)NC(=O)[C@H](CCCCN)NC(=O)OCC2c3ccccc3-c3ccccc32)C(C)C)CSSC[C@@H](C(=O)N[C@@H](Cc2c[nH]cn2)C(=O)N[C@@H](CCCNC(=N)N)C(=O)N[C@@H](CCCNC(=N)N)C(=O)N[C@@H](C)C(=O)N[C@@H](CC(N)=O)C(N)=O)NC(=O)[C@H](C(C)C)NC(=O)[C@H](CCCNC(=N)N)NC1=O |  | ICR mouse | ip, 5 mg/kg | direction not given | group interaction score | 0
